Published values pooled from the literature.
Lines come from different studies, so protocols differ. Several values in a cell are separate wells, animals, samples, runs or records. Numbers after ± are the reported error.
GPR84: G-protein coupled receptor 84 (GPR84, Homo sapiens, UniProt Q9NQS5)
Chain of UniProt Q9NQS5 (whole entry, looked up): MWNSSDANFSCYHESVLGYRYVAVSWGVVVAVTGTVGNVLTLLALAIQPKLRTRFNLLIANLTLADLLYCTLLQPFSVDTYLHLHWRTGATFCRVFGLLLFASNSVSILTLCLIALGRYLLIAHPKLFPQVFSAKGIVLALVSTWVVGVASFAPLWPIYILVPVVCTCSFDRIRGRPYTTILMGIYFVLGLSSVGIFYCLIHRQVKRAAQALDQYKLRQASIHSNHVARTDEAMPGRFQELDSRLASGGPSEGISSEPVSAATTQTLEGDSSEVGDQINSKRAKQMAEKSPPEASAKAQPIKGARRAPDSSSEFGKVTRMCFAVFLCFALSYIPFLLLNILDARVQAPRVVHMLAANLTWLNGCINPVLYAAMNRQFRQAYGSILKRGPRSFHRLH
ESR2: Estrogen receptor beta (ESR2, Homo sapiens, UniProt Q92731)
Chain of UniProt Q92731 (whole entry, looked up): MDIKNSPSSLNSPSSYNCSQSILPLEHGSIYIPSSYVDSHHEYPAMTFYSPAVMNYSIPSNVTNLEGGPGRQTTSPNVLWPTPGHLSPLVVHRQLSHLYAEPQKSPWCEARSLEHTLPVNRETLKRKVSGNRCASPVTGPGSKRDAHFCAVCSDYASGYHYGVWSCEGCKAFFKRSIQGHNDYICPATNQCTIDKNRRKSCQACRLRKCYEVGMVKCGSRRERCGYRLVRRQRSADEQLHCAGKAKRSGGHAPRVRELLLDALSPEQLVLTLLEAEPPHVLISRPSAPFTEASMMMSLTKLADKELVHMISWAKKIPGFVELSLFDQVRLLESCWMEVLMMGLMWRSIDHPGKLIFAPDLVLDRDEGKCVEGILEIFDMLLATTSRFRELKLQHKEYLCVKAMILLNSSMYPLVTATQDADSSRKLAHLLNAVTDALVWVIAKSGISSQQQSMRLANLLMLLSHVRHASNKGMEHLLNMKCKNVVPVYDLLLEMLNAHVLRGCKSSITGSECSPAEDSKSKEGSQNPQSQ
Chain of UniProt Q92633 (whole entry, unmodified, looked up): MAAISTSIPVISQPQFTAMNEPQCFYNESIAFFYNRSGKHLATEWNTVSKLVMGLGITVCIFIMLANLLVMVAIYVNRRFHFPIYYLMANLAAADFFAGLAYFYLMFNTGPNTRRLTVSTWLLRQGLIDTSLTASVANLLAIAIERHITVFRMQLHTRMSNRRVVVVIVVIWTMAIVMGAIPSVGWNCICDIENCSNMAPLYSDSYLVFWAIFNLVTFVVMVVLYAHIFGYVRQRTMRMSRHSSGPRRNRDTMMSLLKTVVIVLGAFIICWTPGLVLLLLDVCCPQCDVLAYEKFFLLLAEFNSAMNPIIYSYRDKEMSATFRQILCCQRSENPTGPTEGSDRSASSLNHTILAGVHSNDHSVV
Chain of UniProt P34995 (whole entry, unmodified, looked up): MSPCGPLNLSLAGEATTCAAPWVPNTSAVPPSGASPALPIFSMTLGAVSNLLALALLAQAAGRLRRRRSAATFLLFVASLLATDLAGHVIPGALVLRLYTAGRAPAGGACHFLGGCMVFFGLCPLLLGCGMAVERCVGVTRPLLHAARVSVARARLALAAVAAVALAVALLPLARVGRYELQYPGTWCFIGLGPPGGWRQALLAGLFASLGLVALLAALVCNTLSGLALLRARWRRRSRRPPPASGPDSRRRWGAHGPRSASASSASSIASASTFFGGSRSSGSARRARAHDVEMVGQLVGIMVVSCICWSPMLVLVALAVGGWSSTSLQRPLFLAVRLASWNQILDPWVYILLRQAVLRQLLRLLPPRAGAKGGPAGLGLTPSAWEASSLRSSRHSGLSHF
Chain of UniProt Q96GD4 (whole entry, looked up): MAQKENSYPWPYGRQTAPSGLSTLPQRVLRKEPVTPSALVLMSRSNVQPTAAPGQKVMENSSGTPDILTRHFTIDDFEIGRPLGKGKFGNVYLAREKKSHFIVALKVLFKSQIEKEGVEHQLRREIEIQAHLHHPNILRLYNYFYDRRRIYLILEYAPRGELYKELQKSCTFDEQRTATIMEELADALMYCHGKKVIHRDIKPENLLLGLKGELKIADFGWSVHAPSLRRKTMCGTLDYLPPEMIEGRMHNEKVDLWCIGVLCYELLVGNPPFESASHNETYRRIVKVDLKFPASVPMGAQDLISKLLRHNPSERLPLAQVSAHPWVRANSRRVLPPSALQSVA

| Structure (SMILES) | target | assay | system | conditions | EC50 |
| --- | --- | --- | --- | --- | --- |
| CCCCC[C@H](O)/C=C/[C@H]1[C@H](O)CC(=O)[C@@H]1C/C=C\CCCC(=O)O | PTGER1 (Homo sapiens, UniProt P34995, Q344A) | IP1 accumulation, agonist | AD293 | EP1 Q344A mutant | 104 nM |
| Cc1ccc(CCNc2cc(=O)[nH]c(=O)[nH]2)cc1 | GPR84 | agonist | – | – | 324 nM |
| O=C(/C=C/c1ccc(O)cc1)c1ccccc1 | ESR2 | array formation, agonist | GFP-ERβ PRL-HeLa | 1 h | 741 nM |
| CCCCCCCCN(C)c1cc(=O)[nH]c(=O)[nH]1 | GPR84 | agonist | – | – | 631 nM |
| COc1cc(O)c2c(=O)c(O[C@@H]3O[C@H](CO)[C@@H](O)[C@H](O)[C@H]3O)c(-c3ccc(O[C@@H]4O[C@H](CO)[C@@H](O)[C@H](O)[C@H]4O)cc3)oc2c1 | ESR2 | array formation, agonist | GFP-ERβ PRL-HeLa | 1 h | 5150 nM |
| CCc1oc2c([C@H](CO)N(CC)CC)cccc2c1C | LPAR1 (Homo sapiens, UniProt Q92633, W210A) | G-protein dissociation, agonist, NanoBiT | human cells | – | 7.2 nM and 7.21 nM |
| O=c1cc(NCCOc2ccccc2)[nH]c(=O)[nH]1 | GPR84 | agonist | – | – | 741 nM |
| COc1cc(Nc2ncc3c(n2)-c2ccc(Cl)cc2C(c2c(F)cccc2OC)=NC3)ccc1C(=O)NCCOCCOCCNC(=O)COc1cccc2c1C(=O)N(C1CCC(=O)NC1=O)C2=O (stereo not drawn) | Aurora kinase B (AURKB, Homo sapiens, UniProt Q96GD4) | NanoBRET target engagement | HEK293 expressing NanoLuc fusion | 2 h | 1420 ± 135 nM |
| O=C(/C=C/c1ccc(O)c(O)c1)c1ccc(O)cc1O | ESR2 | array formation, agonist | GFP-ERβ PRL-HeLa | 1 h | 454 nM |
